Assay results from different studies.
Compare with care: the assays were run in different laboratories. ± gives the spread as reported.
SIRT5: NAD-dependent protein deacylase sirtuin-5, mitochondrial (SIRT5, Homo sapiens, UniProt Q9NXA8)
Chain of UniProt Q9NXA8 (whole entry, looked up): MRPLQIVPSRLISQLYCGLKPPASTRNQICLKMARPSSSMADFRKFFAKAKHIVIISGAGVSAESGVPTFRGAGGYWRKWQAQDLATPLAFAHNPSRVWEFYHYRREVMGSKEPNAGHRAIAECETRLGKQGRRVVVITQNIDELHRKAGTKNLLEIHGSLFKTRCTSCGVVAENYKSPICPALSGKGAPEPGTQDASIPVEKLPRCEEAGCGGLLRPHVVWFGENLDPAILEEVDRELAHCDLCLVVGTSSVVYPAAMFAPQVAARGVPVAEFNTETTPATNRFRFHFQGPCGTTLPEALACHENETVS
Formate-nitrite transporter: Formate-nitrite transporter (Plasmodium falciparum, UniProt O77389)
Chain of UniProt O77389 (whole entry, looked up): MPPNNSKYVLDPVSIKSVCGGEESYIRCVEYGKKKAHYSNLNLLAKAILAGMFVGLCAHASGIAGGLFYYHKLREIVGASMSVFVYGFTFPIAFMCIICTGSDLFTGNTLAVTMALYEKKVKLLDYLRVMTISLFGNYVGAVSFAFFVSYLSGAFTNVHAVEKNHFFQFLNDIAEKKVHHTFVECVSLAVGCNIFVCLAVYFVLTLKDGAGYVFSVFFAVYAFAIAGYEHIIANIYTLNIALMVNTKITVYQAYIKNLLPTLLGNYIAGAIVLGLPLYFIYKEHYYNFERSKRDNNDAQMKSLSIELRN
CXCR4: C-X-C chemokine receptor type 4 (CXCR4, Homo sapiens, UniProt P61073)
Chain of UniProt P61073 (whole entry, looked up): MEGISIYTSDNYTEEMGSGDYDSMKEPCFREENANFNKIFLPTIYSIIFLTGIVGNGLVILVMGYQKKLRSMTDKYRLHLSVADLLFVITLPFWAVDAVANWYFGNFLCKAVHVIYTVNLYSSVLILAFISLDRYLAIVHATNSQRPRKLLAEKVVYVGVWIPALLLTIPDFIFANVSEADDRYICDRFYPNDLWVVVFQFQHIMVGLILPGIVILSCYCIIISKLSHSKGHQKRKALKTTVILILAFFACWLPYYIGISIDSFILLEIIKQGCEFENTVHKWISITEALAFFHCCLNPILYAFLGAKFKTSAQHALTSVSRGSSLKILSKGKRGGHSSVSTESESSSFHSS
lasR: Transcriptional activator protein LasR (lasR, Pseudomonas aeruginosa, UniProt P25084)
Chain of UniProt P25084 (whole entry, looked up): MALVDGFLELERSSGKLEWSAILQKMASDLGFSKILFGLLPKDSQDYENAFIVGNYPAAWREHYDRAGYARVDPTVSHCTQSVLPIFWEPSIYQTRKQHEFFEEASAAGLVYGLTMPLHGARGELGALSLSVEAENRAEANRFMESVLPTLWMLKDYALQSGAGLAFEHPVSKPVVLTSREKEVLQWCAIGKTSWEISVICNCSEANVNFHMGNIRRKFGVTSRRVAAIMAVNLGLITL
blaNDM-1: Metallo-beta-lactamase type 2 (blaNDM-1, Klebsiella pneumoniae, UniProt C7C422)
Chain of UniProt C7C422 (whole entry, looked up): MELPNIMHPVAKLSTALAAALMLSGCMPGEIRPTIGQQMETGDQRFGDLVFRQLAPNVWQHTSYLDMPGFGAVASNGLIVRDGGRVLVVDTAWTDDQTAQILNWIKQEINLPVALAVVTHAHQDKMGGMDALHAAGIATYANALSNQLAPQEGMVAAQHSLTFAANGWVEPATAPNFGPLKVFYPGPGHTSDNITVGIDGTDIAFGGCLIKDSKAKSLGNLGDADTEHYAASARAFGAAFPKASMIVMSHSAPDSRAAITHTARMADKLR
Proteasome subunit beta type-3/PSMB7: Proteasome subunit beta type-3/PSMB7 (Homo sapiens, UniProt P49720+Q99436)
Chain of UniProt Q99436 (whole entry, looked up): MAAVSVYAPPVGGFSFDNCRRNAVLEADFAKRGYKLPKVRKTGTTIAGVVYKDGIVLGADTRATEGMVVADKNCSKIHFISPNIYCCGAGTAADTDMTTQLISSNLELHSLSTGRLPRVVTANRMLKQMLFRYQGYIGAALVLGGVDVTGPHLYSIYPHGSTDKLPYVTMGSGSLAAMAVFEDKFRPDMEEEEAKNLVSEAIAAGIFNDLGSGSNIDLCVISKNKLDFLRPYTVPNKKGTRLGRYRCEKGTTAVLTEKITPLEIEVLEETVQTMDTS
Chain of UniProt P49720 (whole entry, looked up): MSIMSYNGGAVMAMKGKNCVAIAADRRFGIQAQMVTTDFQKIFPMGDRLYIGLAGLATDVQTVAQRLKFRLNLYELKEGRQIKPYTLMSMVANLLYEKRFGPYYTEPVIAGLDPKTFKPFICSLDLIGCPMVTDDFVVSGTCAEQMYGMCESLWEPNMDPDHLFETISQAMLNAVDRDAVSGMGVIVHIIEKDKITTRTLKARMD
Chain of UniProt P23141 (whole entry, looked up): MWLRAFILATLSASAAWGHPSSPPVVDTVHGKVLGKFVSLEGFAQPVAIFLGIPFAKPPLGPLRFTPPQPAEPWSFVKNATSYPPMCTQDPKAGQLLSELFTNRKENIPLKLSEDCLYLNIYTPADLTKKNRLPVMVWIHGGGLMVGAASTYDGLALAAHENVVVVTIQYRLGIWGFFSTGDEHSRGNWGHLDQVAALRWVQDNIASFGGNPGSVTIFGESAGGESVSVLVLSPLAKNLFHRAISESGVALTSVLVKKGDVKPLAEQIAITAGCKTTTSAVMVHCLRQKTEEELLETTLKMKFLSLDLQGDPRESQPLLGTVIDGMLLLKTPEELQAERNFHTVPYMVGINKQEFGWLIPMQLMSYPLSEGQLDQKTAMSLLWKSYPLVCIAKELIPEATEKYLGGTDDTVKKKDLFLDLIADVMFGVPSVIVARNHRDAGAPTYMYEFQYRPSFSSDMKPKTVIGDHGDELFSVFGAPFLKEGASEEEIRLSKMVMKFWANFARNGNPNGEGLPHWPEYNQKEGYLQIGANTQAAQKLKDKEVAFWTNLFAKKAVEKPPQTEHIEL
Chain of UniProt P19492 (whole entry, looked up): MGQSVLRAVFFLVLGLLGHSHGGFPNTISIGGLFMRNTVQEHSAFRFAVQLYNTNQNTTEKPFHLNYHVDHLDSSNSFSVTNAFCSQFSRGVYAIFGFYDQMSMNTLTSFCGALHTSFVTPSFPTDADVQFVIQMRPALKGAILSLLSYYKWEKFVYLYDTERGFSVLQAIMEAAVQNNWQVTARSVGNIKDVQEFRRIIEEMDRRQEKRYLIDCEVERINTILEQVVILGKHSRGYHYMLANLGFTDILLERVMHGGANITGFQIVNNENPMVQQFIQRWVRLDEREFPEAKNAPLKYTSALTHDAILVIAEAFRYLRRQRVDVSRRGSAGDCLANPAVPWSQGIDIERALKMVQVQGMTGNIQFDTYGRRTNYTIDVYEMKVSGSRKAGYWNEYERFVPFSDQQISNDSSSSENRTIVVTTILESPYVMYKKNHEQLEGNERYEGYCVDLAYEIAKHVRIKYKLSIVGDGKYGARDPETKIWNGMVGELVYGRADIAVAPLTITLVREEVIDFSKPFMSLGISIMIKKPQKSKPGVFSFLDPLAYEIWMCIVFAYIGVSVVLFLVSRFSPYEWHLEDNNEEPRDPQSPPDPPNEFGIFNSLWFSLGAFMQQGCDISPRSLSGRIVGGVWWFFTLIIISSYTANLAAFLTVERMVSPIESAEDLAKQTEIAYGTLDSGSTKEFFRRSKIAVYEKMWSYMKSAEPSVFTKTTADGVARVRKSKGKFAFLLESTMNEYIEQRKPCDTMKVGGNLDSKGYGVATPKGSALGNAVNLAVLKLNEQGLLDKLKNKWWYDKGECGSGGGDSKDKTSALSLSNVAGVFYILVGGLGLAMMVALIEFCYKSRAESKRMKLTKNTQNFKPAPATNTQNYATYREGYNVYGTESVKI
Chain of UniProt O60911 (whole entry, looked up): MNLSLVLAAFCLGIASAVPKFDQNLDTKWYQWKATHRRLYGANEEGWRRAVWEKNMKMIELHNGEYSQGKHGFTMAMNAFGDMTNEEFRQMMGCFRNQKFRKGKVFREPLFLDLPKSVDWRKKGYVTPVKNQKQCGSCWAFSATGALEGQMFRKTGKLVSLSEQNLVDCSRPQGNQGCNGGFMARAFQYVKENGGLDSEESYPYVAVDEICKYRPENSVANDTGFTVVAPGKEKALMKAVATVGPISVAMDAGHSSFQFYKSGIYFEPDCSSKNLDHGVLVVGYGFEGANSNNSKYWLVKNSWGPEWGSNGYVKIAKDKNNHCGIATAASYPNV
Chain of UniProt P33261 (whole entry, looked up): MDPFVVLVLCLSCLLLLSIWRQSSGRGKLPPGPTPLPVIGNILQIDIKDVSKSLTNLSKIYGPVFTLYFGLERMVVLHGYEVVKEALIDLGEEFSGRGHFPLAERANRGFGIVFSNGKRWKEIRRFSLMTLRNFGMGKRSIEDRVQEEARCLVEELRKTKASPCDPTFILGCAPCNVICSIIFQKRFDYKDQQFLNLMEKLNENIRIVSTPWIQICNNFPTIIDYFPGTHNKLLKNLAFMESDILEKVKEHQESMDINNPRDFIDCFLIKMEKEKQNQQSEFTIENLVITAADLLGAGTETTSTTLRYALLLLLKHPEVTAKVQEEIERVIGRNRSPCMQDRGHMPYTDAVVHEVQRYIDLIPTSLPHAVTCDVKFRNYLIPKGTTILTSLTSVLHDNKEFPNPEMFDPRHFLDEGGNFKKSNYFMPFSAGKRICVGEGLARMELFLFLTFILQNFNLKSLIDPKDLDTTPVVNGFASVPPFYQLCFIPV
Chain of UniProt P0A6M2 (whole entry, unmodified, looked up): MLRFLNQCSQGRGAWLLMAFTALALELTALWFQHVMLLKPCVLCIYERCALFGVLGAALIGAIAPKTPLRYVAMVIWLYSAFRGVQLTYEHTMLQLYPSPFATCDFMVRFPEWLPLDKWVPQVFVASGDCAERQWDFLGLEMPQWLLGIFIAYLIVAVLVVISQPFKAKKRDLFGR
Chain of UniProt Q2FDS6 (whole entry, looked up): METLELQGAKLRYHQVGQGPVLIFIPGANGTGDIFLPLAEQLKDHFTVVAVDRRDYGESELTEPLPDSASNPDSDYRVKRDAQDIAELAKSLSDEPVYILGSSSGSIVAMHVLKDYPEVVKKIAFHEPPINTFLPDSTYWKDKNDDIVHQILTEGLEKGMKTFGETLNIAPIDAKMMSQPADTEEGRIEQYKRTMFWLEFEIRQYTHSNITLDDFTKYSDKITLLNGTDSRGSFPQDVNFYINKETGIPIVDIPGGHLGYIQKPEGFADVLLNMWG

Compound	target	test	test system	conditions	IC50
N=C(N)NCCC[C@H](NC(=O)[C@H](CCCCNC(=O)c1cncc(OS(=O)(=O)F)c1)NC(=O)CCC[P+](c1ccccc1)(c1ccccc1)c1ccccc1)C(=O)NC1CCC1	SIRT5	inhibitor, fluorogenic		pre-incubation 24 h, together with: NAD+ 500 µM	5000 ± 1400 nM
Nc1nc(N)c2c(n1)OC1(CCNCC1)C2	TERT (Tribolium castaneum, UniProt Q0QHL8)	enzyme activity, inhibitor, fluorescence			95000 nM
Cc1ccc2c(n1)c(-c1cccc(S(C)(=O)=O)c1)c(C)n2C/C(F)=C/CN	Cytochrome P450 2C19 (CYP2C19, Homo sapiens, UniProt P33261)	enzyme activity, inhibitor	human liver microsomes	without NADPH preincubation	490 nM
CCCCCCCCCCCCCCCCCC(=O)NC[C@H]1CC[C@H](C(=O)N[C@@H](CCC(=O)NCCCOCCOCCOCCCNC(=O)COCC(=O)N[C@@H](Cc2ccc(O)cc2)C(=O)NC(C)(Cc2ccccc2)C(=O)N[C@@H](CC(C)C)C(=O)N[C@@H](CCCC)C(=O)N[C@@H](CCCNC(=N)N)C(=O)N2CCC[C@H]2C(=O)N[C@@H](CCCNC(=N)NC)C(=O)N[C@@H](CC(N)=O)C(N)=O)C(=O)O)CC1 (some centres unmarked)	Neuromedin-U receptor 1 (Mus musculus, UniProt O55040)	β-arrestin recruitment, antagonist, PathHunter luminescence		30 min preincubation, together with: 2 nM mouse NMU-23	11 nM
COCCCNc1ccc(C(=O)C=C(O)C(F)(F)C(F)(F)F)cn1	Formate-nitrite transporter	L-lactate transport, inhibitor, fluorescence	yeast	pH 6.8, together with: L-lactate 1 mM	59 ± 10 nM
O=C(NCCCC[C@H](NS(=O)(=O)c1cccc(F)c1)C(=O)N[C@@H](Cc1c[nH]c2ccccc12)C(=O)NC1CCC1)c1cncc(OS(=O)(=O)F)c1	SIRT5	inhibitor, fluorogenic		0 h preincubation, His-tagged enzyme 150 nM, together with: NAD+ 500 µM	50000 ± 16000 nM
CN(C(=O)c1ccn2ncc(-c3ccc(C(N)=O)cc3)c2c1)c1ccc(C#N)cn1	Phosphatidylinositol 4-kinase (Cryptosporidium parvum, UniProt Q5CVD3)	enzyme activity, inhibitor, Transcreener ADP2 FP			13.7 ± 6.5 nM
N=C(N)NCCC[C@@H]1NC(=O)[C@H](CCCNc2ccc([N+](=O)[O-])cc2[N+](=O)[O-])NC(=O)[C@@H](Cc2ccc(O)cc2)NC(=O)CNC(=O)[C@H](Cc2ccc3ccccc3c2)NC1=O	CXCR4				97.7 ± 10.3 nM
COc1ccc(C(=O)C=C(O)C(F)(F)C(F)(F)F)c(O)c1	Formate-nitrite transporter	L-lactate transport, inhibitor, fluorescence	yeast	pH 6.8, together with: L-lactate 1 mM	26 ± 4 nM
O=C(NCc1cc(Br)cc(Br)c1OC(=O)c1ccccc1[N+](=O)[O-])c1ccccc1Cl	lasR	plasI-LVAgfp reporter, antagonist	PAO-JP2 pump-active	together with: OdDHL 150 nM	no inhibition
CC(C)C[C@H](NC(=O)[C@H]1O[C@@H]1C(=O)O)C(=O)NCCCCN=C(N)N	Cathepsin L2 (CTSV, Homo sapiens, UniProt O60911)	enzyme activity, inhibitor			10.3 nM
O=C(c1cc(Cc2n[nH]c(=O)c3ccccc23)ccc1F)N1CC(CNC2CC2)C1	Protein mono-ADP-ribosyltransferase TIPARP (TIPARP, Homo sapiens, UniProt Q7Z3E1)	enzyme activity, inhibitor			> 10000 nM
CCC(C(=O)Nc1ccccc1C)n1cccc2nc(SCc3ccc(F)cc3)nc1-2 (centres unmarked)	Prothrombin (F2, Homo sapiens, UniProt P00734)	enzyme activity, inhibitor			> 100000 nM
O=P(O)(O)C(Nc1cc(Cl)cc(Cl)c1)P(=O)(O)O	polyphosphate kinase 2 (Cytophaga hutchinsonii, UniProt A0A6N4SMB5)	enzyme activity, inhibitor, HPLC		30 min, 37 °C, together with: 0.04 mM ADP and 0.3 mM polyP	216000 ± 8800 nM
CC(C)C[C@H](NC(=O)[C@H](Cc1ccc(CN)cc1)NC(=O)[C@H](Cc1ccccc1)N=[N+]=[N-])C(=O)N[C@@H](CCC1CCCCC1)C(=O)[C@@]1(C)CO1	Proteasome subunit beta type-7 (PSMB7, Homo sapiens, UniProt Q99436)	inhibitor, competitive ABPP	Raji cell lysate	constitutive proteasome β2c	38.9 nM
C#CCNC(=O)c1ccc(S(=O)(=O)N[C@@H](CCCCNC(C)=S)C(=O)N[C@@H](CCCNC(=N)N)C(=O)N[C@@H](CC2CCCCC2)C(=O)N[C@H](CCCCN)C(=O)N[C@@H](CC2CCCCC2)C(=O)N[C@H](CCCNC(=N)N)C(=O)N[C@@H](CC2CCCCC2)C(N)=O)cc1	NAD-dependent protein deacetylase sirtuin-2 (SIRT2, Homo sapiens, UniProt Q8IXJ6)	enzyme activity, inhibitor, fluorescence			2440 nM
CCCC[C@@H]1NC(=O)[C@@H](CCC(N)=O)NC(=O)[C@H]2CCCN2C(=O)[C@H]([C@@H](C)CC)NC(=O)[C@@H]2C[C@@H](O)CN2C(=O)[C@H](Cc2ccccc2CN)NC(=O)[C@@H]2CCCN2C(=O)[C@@H](CS)NC1=O	blaNDM-1	enzyme activity, inhibitor, absorbance			39100 nM
COCCCC1CCCCN1C(=O)Oc1ccc([N+](=O)[O-])cc1 (centres unmarked)	Liver carboxylesterase 1 (CES1, Homo sapiens, UniProt P23141)	enzyme activity, inhibitor			110 nM
CN1CCCCC1C(=O)NC(Cc1ccc(-c2ccccc2)cc1)B(O)O (centres unmarked)	Proteasome subunit beta type-3/PSMB7	β2c trypsin-like activity, inhibitor		constitutive proteasome, together with: Ac-KQL-AMC	> 10000 nM

Compound	target	test	test system	conditions	IC50
CC(C)C[C@@H]1NC(=O)[C@@H](CCCNC(=N)N)NC(=O)[C@@H](CCCNC(=N)N)NC(=O)[C@H](CCC(=O)O)NC(=O)[C@@H]2CCCN2C(=O)[C@H](CC(C)C)NC(=O)[C@@H]2CCCN2C(=O)[C@@H](CS)NC1=O	blaNDM-1	enzyme activity, inhibitor, absorbance			7160 nM
CCCCCC(=O)CC(=O)N[C@H]1CCOC1=O	lasR	reporter gene, antagonist	Escherichia coli, JLD271 with LasR plasmid	together with: OdDHL 0.5 nM	120 nM
COc1c(Cl)cnn(-c2cccc(C)c2)c1=O	Disulfide bond formation protein B (Escherichia coli, UniProt P0A6M2, C49V/C8A)	enzyme activity, inhibitor			4870 to 6120 nM
CN1CCCN(C(=O)c2ccc(S(=O)(=O)F)cc2)c2ccccc21	Uncharacterized hydrolase SAUSA300_2518 (Staphylococcus aureus, UniProt Q2FDS6)	enzyme activity, inhibitor			> 50000 nM
Cc1ccc(C2=CCC(C)(C)c3ccc(C(=O)Nc4ccc(C(=O)O)cc4)cc32)cc1	Retinoic acid receptor alpha (RARA, Homo sapiens, UniProt P10276)				15 nM
CC[C@H](C)[C@@H]1NC(=O)[C@@H]2CCCN2C(=O)[C@@H](CS)NC(=O)[C@H](CC(C)C)NC(=O)[C@@H](CCCNC(=N)N)NC(=O)[C@@H]([C@H](C)O)NC(=O)[C@H](CCC(=O)O)NC(=O)[C@@H]2CCCN2C1=O	blaNDM-1	enzyme activity, inhibitor, absorbance			9210 nM
CCCNc1ccc(C(=O)C=C(O)C(F)(F)C(F)(F)F)cn1	Formate-nitrite transporter	L-lactate transport, inhibitor, fluorescence assay in yeast		together with: 1 mM L-lactate	113 nM
CC(C)C[C@H](NC(=O)[C@H](Cc1ccccc1)NC(=O)[C@H](CCCNC(=N)N)NC(=O)[C@H](C)NC(=O)CNC(=O)[C@@H]1CCCN1)B(O)O	Proteasome subunit beta type-3/PSMB7	trypsin-like activity, inhibitor	human proteasome 10 nM	together with: Boc-LRR-AMC	85 nM
O=C(O)CCn1c(=O)oc2cc(Cl)c(Cl)cc21	Alpha-1B adrenergic receptor (ADRA1B, Homo sapiens, UniProt P35368)	antagonist		median value	> 25100 nM
OC[C@@H]1[C@@H](O)[C@H](O)[C@@H](O)[C@@H]2N[C@H]12	Oligosaccharide 4-alpha-D-glucosyltransferase (agd31B, Cellvibrio japonicus, UniProt B3PEE6)	enzyme activity, inhibitor		30 min preincubation, pH 6.5, 25 °C	> 100000 nM
O=C(C=C(O)C(F)(F)C(F)(F)F)c1ccc(NC2CC2)nc1	Formate-nitrite transporter	L-lactate transport, inhibitor, fluorescence	yeast	pH 6.8, together with: L-lactate 1 mM	121 ± 12 nM
CC[C@H](C)[C@@H]1NC(=O)[C@@H]2CCCN2C(=O)[C@@H](CS)NC(=O)[C@H](Cc2ccc(O)cc2)NC(=O)[C@@H](CCCNC(=N)N)NC(=O)[C@@H](CCCNC(=N)N)NC(=O)[C@H](CCC(=O)O)NC(=O)[C@@H]2CCCN2C1=O	blaNDM-1	enzyme activity, inhibitor, absorbance			2930 nM
CC(C)C[C@@H](N)C(=O)NCC(=O)N[C@H](C)C(=O)N[C@H](CO)C(=O)N[C@H](Cc1c[nH]c2ccccc12)C(=O)N[C@H](Cc1c[nH]cn1)C(=O)N[C@H](CCCNC(=N)N)C(=O)N1CCC[C@@H]1C(=O)N[C@H](CC(=O)O)C(=O)N[C@H](CCCCN)C(=O)N[C@H](CCCCN)C(=O)N[C@H](CCCNC(=N)N)C(=O)NCCCCCC(=O)N[C@H](CCCCN)C(=O)N[C@H](CCCNC(=N)N)C(=O)N[C@H](CCCCN)C(=O)N[C@H](CCC(N)=O)C(=O)N[C@H](CCCNC(=N)N)C(=O)NCC(=O)N1CCC[C@@H]1C(=O)NCC(=O)N[C@H](CCCNC(=N)N)C(=O)N[C@H](C)C(=O)N[C@H](Cc1ccccc1)C(N)=O	CXCR4	cell migration, antagonist			870 nM
CCCN(C)c1ccc(C(=O)C=C(O)C(F)(F)C(F)(F)F)cn1	Formate-nitrite transporter	L-lactate transport, inhibitor, fluorescence	yeast	pH 6.8, together with: L-lactate 1 mM	176 ± 19 nM
CSCC[C@@H]1NC(=O)[C@H](Cc2ccccc2)NC(=O)[C@H](NC(=O)[C@H](C)N)CSC(=O)[C@H](C(C)C)NC(=O)[C@H](Cc2ccccc2)NC1=O	Histidine kinase AgrC (Listeria monocytogenes, UniProt A8E0G3)	agr signalling			3970 nM
O=C(O)C1=C[C@H](O)[C@@H](NC(=O)c2ccc(-c3ccccc3)cc2)[C@H]([C@H](O)[C@H](O)CO)O1	Sialidase-1 (NEU1, Homo sapiens, UniProt Q99519)	enzyme activity, inhibitor			> 500000 nM
COC(=O)Cc1cc2c(cc1C(=O)c1cccc(Br)c1)OCO2	Gria2/Glutamate receptor 3 (Rattus norvegicus, UniProt P19491+P19492)	ion current, patch clamp			5410 nM
N=C(N)NCCC[C@H](NC(=O)[C@H](CCCCNC(=O)c1cncc(OS(=O)(=O)F)c1)NS(=O)(=O)c1cccc(F)c1)C(=O)NC1CCC1	SIRT5	inhibitor, fluorogenic		0 h preincubation, non-tagged enzyme 150 nM, together with: NAD+ 500 µM	> 200000 nM
CCCCCNc1ccc(C(=O)C=C(O)C(F)(F)C(F)(F)F)cn1	Formate-nitrite transporter	L-lactate transport, inhibitor, fluorescence	yeast	pH 6.8, together with: L-lactate 1 mM	32 ± 5 nM

Repeated from above:
Compound	target	test	test system	conditions	IC50
CCCCCC(=O)CC(=O)N[C@H]1CCOC1=O	lasR	reporter gene, antagonist	Escherichia coli, JLD271 with LasR plasmid	together with: OdDHL 0.5 nM	120 nM
COc1c(Cl)cnn(-c2cccc(C)c2)c1=O	Disulfide bond formation protein B (Escherichia coli, UniProt P0A6M2, C49V/C8A)	enzyme activity, inhibitor			4870 to 6120 nM
